Experimental data gathered from unrelated publications.
Compare with care: the assays were run in different laboratories. “And” joins repeats or separate records; there may be more than shown. ± marks the error that the study gave.

SMILES = CC(C)[C@@H]1NC(=O)CNC(=O)[C@H](CC(N)=O)NC(=O)[C@H](CCCNC(=N)N)NC(=O)[C@H](Cc2ccc(O)cc2)NC(=O)[C@H](C(C)C)NC(=O)[C@@H](NC(=O)[C@@H](NC(=O)[C@H](CC(N)=O)NC(=O)[C@H](Cc2c[nH]c3ccccc23)NC(=O)[C@H](C)NC(=O)[C@H](Cc2ccccc2)NC(=O)CNC(=O)[C@H](CCCCN)NC(=O)[C@H](Cc2ccccc2)NC(=O)[C@H](Cc2ccccc2)NC(=O)[C@H](CCCCN)NC(=O)OCC2c3ccccc3-c3ccccc32)C(C)C)CSSC[C@@H](C(=O)N[C@@H](Cc2c[nH]cn2)C(=O)N[C@@H](CCCNC(=N)N)C(=O)N[C@@H](CCCNC(=N)N)C(=O)N[C@@H](C)C(=O)N[C@@H](CC(N)=O)C(N)=O)NC(=O)[C@H](C(C)C)NC(=O)[C@H](CCCNC(=N)N)NC1=O; system = ICR mouse, blood; setting = intramammary, 10 mg/kg, day 5, 3 d dosing; quantity = basophils; value = 1.66 ± 0.29%
SMILES = CCN(CCCCOc1ccc(CCC(=O)N2CCC(Cc3ccccc3)CC2)cc1OC)Cc1ccccc1; system = Sprague-Dawley rats, both sexes, faeces; setting = oral gavage, 25 mg/kg, 0 to 48 h; scale = baseline: dose; quantity = excretion rate; value = 1.4 ± 0.0166%
SMILES = CC[C@H](C)[C@H](NC(=O)[C@H](C)NC(=O)CNC(=O)[C@H](CCCCN)NC(=O)[C@@H](NC(=O)[C@H](CC(C)C)NC(=O)[C@H](C)NC(=O)CNC(=O)[C@H](CC(C)C)NC(=O)[C@@H](N)Cc1ccccc1)[C@@H](C)CC)C(=O)N[C@@H](Cc1c[nH]cn1)C(=O)NCC(=O)NCC(=O)N[C@@H](CCCNC(=N)N)C(=O)N[C@@H](Cc1ccccc1)C(=O)N[C@H](C(=O)N[C@@H](Cc1c[nH]cn1)C(=O)NCC(=O)N[C@@H](CCSC)C(=O)N[C@H](C(=O)N[C@@H](CCC(N)=O)C(=O)N[C@@H](CC(N)=O)C(=O)N[C@@H](Cc1c[nH]cn1)C(=O)N[C@@H](Cc1c[nH]cn1)C(N)=O)[C@@H](C)CC)[C@@H](C)CC; system = zebrafish embryos 28 hpf, E3 medium; setting = 1 h; quantity = acute toxic concentration; value = 25 µM
SMILES = O=C(O)/C=C\c1ccc2occc2c1O[C@@H]1O[C@H](CO)[C@@H](O)[C@H](O)[C@H]1O; test = post-procedure stability; system = rat plasma; setting = 8 ng/mL, 1 h, room temperature; quantity = accuracy; value = 99.1%
SMILES = CS(=O)(=O)c1cc(Cl)cc(-c2cc(Cl)c(Cl)cc2Cl)c1Cl; test = ultrafiltration; system = cow milk whey; setting = 500 nM nominal in whole milk; quantity = dose fraction in permeate; value = 41.1%
SMILES = CC(C)C[C@H](NC(=O)[C@H](CCCNC(=N)N)NC(=O)[C@H](Cc1ccccc1)NC(=O)[C@H](Cc1ccccc1)NC(=O)[C@@H](N)[C@@H](C)O)C(=O)N[C@@H](Cc1ccccc1)C(=O)N[C@@H](CC(N)=O)C(=O)N[C@@H](CCCNC(=N)N)C(=O)N[C@@H](C)C(=O)N[C@@H](CCCCN)C(=O)N[C@@H](CCCNC(=N)N)C(=O)N[C@@H](Cc1c[nH]cn1)C(=O)N[C@@H](Cc1c[nH]cn1)C(=O)NCC(=O)N[C@@H](Cc1ccc(O)cc1)C(=O)N[C@@H](CCCCN)C(=O)N[C@@H](CCCNC(=N)N)C(=O)N[C@@H](CCCCN)C(=O)N[C@@H](Cc1ccccc1)C(=O)N[C@@H](Cc1c[nH]cn1)C(=O)O; test = HPLC-UV; system = human saliva; setting = 4 h, 37 °C, added: initial 1 mg/mL; quantity = peptide concentration; value = 0.358 mg/mL
SMILES = CC[C@H](C)[C@@H]1NC(=O)[C@H](Cc2ccc(O)cc2)NC(=O)CCCSC[C@@H](C(=O)N(CC(=O)N[C@@H](CC(C)C)C(=O)NCC(N)=O)Cc2ccc(F)cc2)NC(=O)[C@H](CC(N)=O)NC(=O)[C@H](CCC(N)=O)NC1=O; system = human; setting = intranasal, 50 µg repeated doses; quantity = deaths; value = 0%
SMILES = CCC1=C(C)C2=C(c3ccc(C(=O)NCCNC(=O)c4ccc(P(=NC5=[O+][Ru-]([Cl])[n+]6ccccc65)(c5ccccc5)c5ccccc5)cc4)cc3)c3c(C)c(CC)c(C)n3[B-](F)(F)[N+]2=C1C.Cc1ccc(C(C)C)cc1.[Cl-]; system = DMSO-d6 solution; quantity = stability time; value = ≥ 2.5 weeks
SMILES = CC(C)[C@H](NC(=O)[C@@H](NC(=O)[C@H](CCCNC(=N)N)NC(=O)[C@H](CCCNC(=N)N)NC(=O)[C@H](CCCNC(=N)N)NC(=O)[C@H](CCC(N)=O)NC(=O)[C@H](CCCNC(=N)N)NC(=O)[C@H](CCCNC(=N)N)NC(=O)[C@H](CCCCN)NC(=O)[C@H](CCCCN)NC(=O)[C@H](CCCNC(=N)N)NC(=O)CN)[C@@H](C)O)C(=O)N[C@H](C(=O)N[C@@H](CO)C(=O)N1CCC[C@H]1C(=O)O)[C@@H](C)O; system = ICR mouse, female, right kidney; setting = intranasal, 5 mg/kg daily, 4 weeks; quantity = kidney weight; value = 0.216 ± 0.023 g
SMILES = Cc1ccc(OC2CN(C)C2)cc1C(=O)N[C@H](C)c1cc(-c2cnn(C)c2)nc2ccccc12; target or system = Vero E6; setting = 125 µM; quantity = viability; value = 2.97% and 1.98% and 3.63%
SMILES = O=C1NC2(CC2)COc2ncc(F)cc2[C@H]2COCCN2c2ccn3ncc1c3n2; system = Sprague-Dawley rat, male, brain; setting = oral, 5 mg/kg/day, 4 weeks, end of treatment; quantity = organ-to-body weight ratio; value = 0.505 ± 0.033%
SMILES = Cc1ccc(N2CC3CCC(C2)N3C)cc1C(=O)N[C@H](C)c1cc(-c2cnn(C)c2)nc2ccccc12; target or system = African green monkey cells; setting = 62.5 µM; quantity = viability; value = 24.3%
SMILES = CC[C@H](C)[C@H](NC(=O)[C@H](CCCCN)NC(=O)CNC(=O)[C@H](CC(C)C)NC(=O)[C@H](Cc1ccccc1)NC(=O)[C@H](CCCCN)NC(=O)[C@H](CO)NC(=O)[C@H](Cc1ccccc1)NC(=O)[C@H](Cc1c[nH]c2ccccc12)NC(=O)[C@H](CCC(N)=O)NC(=O)[C@@H](NC(=O)[C@H](Cc1ccccc1)NC(=O)CCCCCNC(=O)CN1CCN(CC(=O)O)CCN(CC(=O)O)CCN(CC(=O)O)CC1)C(C)C)C(=O)N[C@@H](CCC(=O)O)C(=O)N1CCC[C@H]1C(=O)N[C@@H](CC(=O)O)C(=O)N[C@H](C(=O)N[C@@H](CO)C(=O)N[C@@H](CCC(N)=O)C(=O)N[C@H](C(=O)N[C@@H](CCC(N)=O)C(=O)N[C@@H](CC(=O)O)C(=O)N1CCC[C@H]1C(=O)N[C@@H](CC(N)=O)C(=O)N[C@@H](CC(=O)O)C(=O)N[C@@H](CCC(N)=O)C(=O)N[C@@H](Cc1ccc(O)cc1)C(=O)N[C@@H](CCC(=O)O)C(=O)N1CCC[C@H]1C(=O)N[C@@H](Cc1ccccc1)C(=O)O)C(C)C)C(C)C [copper-64 labelled]; system = C57BL/6 mice, male, tumour-free, spleen; setting = 4 h; quantity = tissue uptake; value = 2.42 ± 0.8 %ID/g
SMILES = COCC1CN(C2CCN(c3cc(OC)c(Nc4ncc(Br)c(Nc5ccc6c(c5P(C)(C)=O)OCCO6)n4)cc3C)CC2)C1; system = EGFR-mutant NSCLC patients; setting = oral, 30 mg once daily; quantity = treatment-related AEs leading to death; value = 0%
SMILES = NC1CCN(C(=O)Oc2ccc(C3CCCC4(C3)OOC3(O4)C4CC5CC(C4)CC3C5)cc2)CC1 (racemic); system = male mouse, plasma; setting = oral, 50 mg/kg, single dose; quantity = Tmax; value = 2 h

For quick reference, copied from above:
SMILES = CS(=O)(=O)c1cc(Cl)cc(-c2cc(Cl)c(Cl)cc2Cl)c1Cl; test = ultrafiltration; system = cow milk whey; setting = 500 nM nominal in whole milk; quantity = dose fraction in permeate; value = 41.1%
SMILES = CC(C)C[C@H](NC(=O)[C@H](CCCNC(=N)N)NC(=O)[C@H](Cc1ccccc1)NC(=O)[C@H](Cc1ccccc1)NC(=O)[C@@H](N)[C@@H](C)O)C(=O)N[C@@H](Cc1ccccc1)C(=O)N[C@@H](CC(N)=O)C(=O)N[C@@H](CCCNC(=N)N)C(=O)N[C@@H](C)C(=O)N[C@@H](CCCCN)C(=O)N[C@@H](CCCNC(=N)N)C(=O)N[C@@H](Cc1c[nH]cn1)C(=O)N[C@@H](Cc1c[nH]cn1)C(=O)NCC(=O)N[C@@H](Cc1ccc(O)cc1)C(=O)N[C@@H](CCCCN)C(=O)N[C@@H](CCCNC(=N)N)C(=O)N[C@@H](CCCCN)C(=O)N[C@@H](Cc1ccccc1)C(=O)N[C@@H](Cc1c[nH]cn1)C(=O)O; test = HPLC-UV; system = human saliva; setting = 4 h, 37 °C, added: initial 1 mg/mL; quantity = peptide concentration; value = 0.358 mg/mL
